Assay results pooled from the literature.
Numbered parts are unrelated; each lists some results of a single study. Substitutions count along the parent as printed.

Study 1
Target: Ras GTPase-activating protein-binding protein 1, full length (G3BP1, Homo sapiens, UniProt Q13283)
Chain of UniProt Q13283 (whole entry, looked up): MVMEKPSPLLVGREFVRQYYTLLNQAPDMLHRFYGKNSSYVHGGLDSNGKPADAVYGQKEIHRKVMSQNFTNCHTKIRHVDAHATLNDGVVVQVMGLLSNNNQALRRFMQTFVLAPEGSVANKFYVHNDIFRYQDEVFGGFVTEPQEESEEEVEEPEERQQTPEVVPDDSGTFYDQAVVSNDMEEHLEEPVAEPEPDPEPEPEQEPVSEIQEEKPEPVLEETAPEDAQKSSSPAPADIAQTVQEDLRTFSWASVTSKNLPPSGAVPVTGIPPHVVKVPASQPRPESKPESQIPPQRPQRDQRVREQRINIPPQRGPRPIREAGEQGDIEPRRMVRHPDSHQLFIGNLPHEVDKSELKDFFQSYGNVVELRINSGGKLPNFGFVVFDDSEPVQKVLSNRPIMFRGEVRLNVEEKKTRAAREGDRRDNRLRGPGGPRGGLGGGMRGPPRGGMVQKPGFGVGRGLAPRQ
Method: RNA Bind-n-Seq
Form: RNA
Sample: in vitro
Tested at: 200 nM
Setting: whole 134-nt RNA, ends assumed
Added: 150 mM KCl
Baseline: input library
Reading: higher = stronger binding
Constant ends, left off below: GGGAGUUCUACAGUCCGACGAUC … UGGAAUUCUCGGGUGUCAAGG
Sequence | log2 enrichment
UCAGGUCCUUAAGUACCUUCGUAUUACUUUUAGCAGGAAAAACGGCAUGUUUUGCAUCUGGUGUGCAAUGUGAAGAGUCCUUCAAAAAUG | 0.00484
ACCAUGCAGGUGGGCAUCUUUGGGAAGUGGGGCAAGGGGGGGAUAGGGAGGGGGGUAACACUUUGGGAACAGGUGGUCCCGGGUCGUUUC | 1.36
UCCUGUGCUACACAUCGUAUGUACCGAAUCAAAGUGUGUGUGUGUGUGUGUGUGUGAAAAAAGUAUUAUGUUACGCCGUUCGGAUCUGCA | 0.963
AAGUCCUGUGCUACACAUCGUAUGUACCGAAUCGGGUUUUUGGGUGGGAAAAAGGGAAAGUAUUAUGUUACGCCGUUCGGAUCUGCACUU | 0.0881
AAGUCCUGUGCUACACAUCGUAUGUACCGAAUCGGGGUGGGGAAAGGGGAAAGGGGAAAGUAUUAUGUUACGCCGUUCGGAUCUGCACUU | 0.921
UGGAUCUUGGAGGGACCAACUUCCGUGUGCUUUGGGUGAAAGUAACGGACAAUGGGCUCCAGAAGGUGGAGAUGGAGAAUCAGAUCUAUG | -1.41
CAAGUCCUGUGCUACACAUCGUAUGUACCGAAUCGGGGUGGGGUUUGGGGUGGGGAAAGUAUUAUGUUACGCCGUUCGGAUCUGCACUUC | 1.06
CUGUGCUACACAUCGUAUGUACCGAAUCGGGGUUUUUUGGGGUUUUUUGGGUUUUUUGGGGAAAGUAUUAUGUUACGCCGUUCGGAUCUG | -0.489
GUCCUGUGCUACACAUCGUAUGUACCGAAUCGGGGUUUUUGGGGUUUUUGGGUUUUUGGAAAGUAUUAUGUUACGCCGUUCGGAUCUGCA | -0.315
CUGUGCUACACAUCGUAUGUACCGAAUCGGGGCCCCCCCGGCCCCCCCGGGGCCCCCCCGGGAAAGUAUUAUGUUACGCCGUUCGGAUCU | -1.09
ACCAUGCAGGUGGGCAUCUUUGAAAAGUGGGGCAAGGGGGGGAUAGGGAGGGGGGUAACACUUUGGGAACAGGUGGUCCCAGGUCGUUUC | 1.33
UAACUUUAGAGGAGGAUCUGAUGGAUAUGGCAGUGGACGUGGAUUUGGGGAUGGCUAUAAGGGGUAUGGAGGAGGACCUGGAGGUGGCAA | 0.574
CUGUGCUACACAUCGUAUGUACCGAAUCGGUUUUUUUGGUUUUUUUGGGGUUUUUUUGGGGAAAGUAUUAUGUUACGCCGUUCGGAUCUG | -1.05
GCAGGAAGUAAAAACAAAUGGAAAUGCUUCGGAUAGUGGCAGGGGUGGGGGUUGCUAAGGAAAGGGUGGGGUGGGAGUGGGUAAAGAGUU | 0.395

Study 2
Target: CCNF, cyclin fold, Cln2 fusion (human)
Method: yeast growth competition, sequencing
Sample: yeast
Setting: strong parent motif
Baseline: not given
Reading: higher = stronger binding
Starting sequence: GMNC docking peptide (human); KNAKRNLSSEFAN
Variant | normalised enrichment score
N6Y | -0.204
L7A | 0.678
L7C | -0.0511
A3C | 0.937
E10D | 0.557
L7M | 0.661
R5N | 0.353
A3Q | 0.307
L7E | 0.535
L7Y | 1.51
K4I | 0.635
A3L | 0.102
N6P | 0.136
S9K | 0.905
E10M | 0.811
R5M | 0.0868
E10P | 0.161
A3I | 1.15
N2I | 0.844
A12V | 0.374
N2L | 0.796
S9I | 1.49
R5F | -0.000659
K4Y | 0.473
F11G | 0.308

Study 3
Target: Histone acetyltransferase KAT6A, winged helix 2, GST fusion (KAT6A, Homo sapiens, UniProt Q92794, residues 85-181)
Method: protein binding microarray
Form: double-stranded DNA, one strand shown
Sample: in vitro
Tested at: not given
Setting: 8-mer, flanks averaged, mean of 2 arrays, mostly near background
Baseline: not given
Reading: higher = stronger binding
Residues (chain): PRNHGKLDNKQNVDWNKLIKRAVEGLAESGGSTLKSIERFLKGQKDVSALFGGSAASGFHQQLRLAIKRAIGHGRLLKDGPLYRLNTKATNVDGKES
Sequence | E-score
CTTACTGC | -0.0597
AGCGCCGG | 0.19
GTCCGAAA | -0.0118
CAAAGGGA | -0.0414
TCTCTACA | 0.0157
CCCCGGCG | 0.189
ACTAACCG | -0.0829
ACGAGCCC | 0.112
CAGGTTCG | 0.0112
ACTCCCGC | 0.0537
CAAAGCGG | 0.209
GAATAACC | -0.18
AATATAGA | 0.0431
CCTAGCTC | 0.0239
CCCGCGAA | 0.144
ACTGACCT | -0.0588
CGTTGCCA | 0.0138
GGACCCAC | 0.184
ACGTCACT | -0.0898
CATCAGGG | 0.0827
GCAGCAAA | 0.0213
AGCGGCGG | 0.288
AGCCTTTG | -0.171
AAATATTC | 0.188
CCACCGAA | 0.128

Study 4
Target: ABI1, truncated, D143A, DHFR fusion (Arabidopsis thaliana)
Method: DHFR PCA, deep sequencing
Sample: yeast
Setting: methotrexate growth selection, single substitutions
Added: (+)-ABA 0 µM
Baseline: wild-type fitted maximum
Reading: higher = stronger binding
Starting sequence: PYL1, truncated, DHFR fusion (Arabidopsis thaliana); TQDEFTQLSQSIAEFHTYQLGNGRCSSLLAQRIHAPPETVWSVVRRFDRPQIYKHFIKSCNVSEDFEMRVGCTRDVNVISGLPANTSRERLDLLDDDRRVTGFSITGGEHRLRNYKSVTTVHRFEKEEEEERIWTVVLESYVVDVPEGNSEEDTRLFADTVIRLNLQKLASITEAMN
Variant | relative binding score [%]
Q51I | -13.1
E14F | 3.72
T160R | -1.73
V100I | 13.3
T120V | -3.59
L93P | 6.03
D3R | 16.1
N85P | 7.13
A13G | 7.37
I52R | 8.96
D153S | -1.22
D144C | -13.7
D75Q | 27
G23R | 19.2
E127F | 14.3
E64L | 1.94
L166C | -0.921
T160F | 51.6
I133V | 55.4

Repeated from above (study 1):
Sequence | log2 enrichment
GUCCUGUGCUACACAUCGUAUGUACCGAAUCGGGGUUUUUGGGGUUUUUGGGUUUUUGGAAAGUAUUAUGUUACGCCGUUCGGAUCUGCA | -0.315
CUGUGCUACACAUCGUAUGUACCGAAUCGGGGUUUUUUGGGGUUUUUUGGGUUUUUUGGGGAAAGUAUUAUGUUACGCCGUUCGGAUCUG | -0.489
UAACUUUAGAGGAGGAUCUGAUGGAUAUGGCAGUGGACGUGGAUUUGGGGAUGGCUAUAAGGGGUAUGGAGGAGGACCUGGAGGUGGCAA | 0.574
AAGUCCUGUGCUACACAUCGUAUGUACCGAAUCGGGGUGGGGAAAGGGGAAAGGGGAAAGUAUUAUGUUACGCCGUUCGGAUCUGCACUU | 0.921
CUGUGCUACACAUCGUAUGUACCGAAUCGGUUUUUUUGGUUUUUUUGGGGUUUUUUUGGGGAAAGUAUUAUGUUACGCCGUUCGGAUCUG | -1.05
AAGUCCUGUGCUACACAUCGUAUGUACCGAAUCGGGUUUUUGGGUGGGAAAAAGGGAAAGUAUUAUGUUACGCCGUUCGGAUCUGCACUU | 0.0881
ACCAUGCAGGUGGGCAUCUUUGGGAAGUGGGGCAAGGGGGGGAUAGGGAGGGGGGUAACACUUUGGGAACAGGUGGUCCCGGGUCGUUUC | 1.36
UCCUGUGCUACACAUCGUAUGUACCGAAUCAAAGUGUGUGUGUGUGUGUGUGUGUGAAAAAAGUAUUAUGUUACGCCGUUCGGAUCUGCA | 0.963
ACCAUGCAGGUGGGCAUCUUUGAAAAGUGGGGCAAGGGGGGGAUAGGGAGGGGGGUAACACUUUGGGAACAGGUGGUCCCAGGUCGUUUC | 1.33
CUGUGCUACACAUCGUAUGUACCGAAUCGGGGCCCCCCCGGCCCCCCCGGGGCCCCCCCGGGAAAGUAUUAUGUUACGCCGUUCGGAUCU | -1.09
UGGAUCUUGGAGGGACCAACUUCCGUGUGCUUUGGGUGAAAGUAACGGACAAUGGGCUCCAGAAGGUGGAGAUGGAGAAUCAGAUCUAUG | -1.41
